Assay results pooled from the literature.
Lines come from different studies, so protocols differ. ± gives the spread as reported.

CCCC[C@H](NC(=O)CNC(=O)CNC(=O)CN1CCN(CC(=O)O)CCN(CC(=O)O)CCN(CC(=O)O)CC1)C(=O)N[C@H]1CC(=O)NCCCC[C@@H](C(N)=O)NC(=O)[C@H](Cc2c[nH]c3ccccc23)NC(=O)[C@H](CCCNC(=N)N)NC(=O)[C@@H](Cc2ccccc2)NC(=O)[C@H](Cc2c[nH]cn2)NC1=O [copper-64 labelled]  uptake ratio (female C57 mouse, B16/F1 melanoma; intravenous, 0.037 MBq, 0.5 h; relative to: tumour over liver): 0.48
CC(C)C[C@@H](NC(=O)[C@H](NC(=O)[C@H]1CCCN1)[C@H](C)O)C(=O)N[C@H](Cc1c[nH]cn1)C(=O)N[C@@H](C(=O)N[C@H](Cc1c[nH]cn1)C(=O)N[C@H](CC(N)=O)C(=O)N[C@H](CCCNC(=N)N)C(=O)N[C@H](CCCNC(=N)N)C(=O)N[C@H](CCCNC(=N)N)C(=O)N[C@H](CCCNC(=N)N)C(=O)N[C@H](CCCNC(=N)N)C(N)=O)[C@H](C)O  AUC(0-inf) (Beagle dog, CSF; intravenous, 3 mg/kg, single dose): 990 ± 383 ng·h/mL
C=C(c1ccc(C(=O)O)c(F)c1)c1cc2c(cc1C)C(C)(C)C=CC2(C)C  LDL level (Sprague-Dawley rat, male, plasma; oral, 100 mg/kg, 12 h, sesame oil vehicle): 4 ± 1 mg/dL
Cc1ccc(OCC(=O)O)cc1  Cmax (male Sprague-Dawley rat, plasma; oral, 30 mg/kg of parent drug, day 1, 90-day study, metabolite): 4400 ± 921 ng/mL
Cn1c(=O)oc2ccc(-c3ccc(CC(C#N)NC(=O)C4CNCCCO4)c(F)c3)cc21 (stereo not shown)  skin exfoliation incidence (human; oral, 40 mg once daily, treatment-related AE, multiple ascending dose): 0%
CCCC(CCC)NC(=O)c1ccc(OC2OC(C(=O)O)C(O)C(O)C2O)c(OC)c1 (stereo not shown)  AUC(0-last) ratio (female Sprague-Dawley rats, plasma; oral, 50 mg/kg of parent drug; relative to: 50 over 20 mg/kg dose): 2.14
CC(C)CCCC(C)CCCC(C)CCO[C@@H]1O[C@H](CO)[C@@H](O[C@H]2O[C@H](CO)[C@@H](O)[C@H](O)[C@H]2O)[C@H](O)[C@H]1O (stereo partly shown)  surface tension at CMC (drop shape tensiometry; water; room temperature): 28.3 mN/m
Cc1ccc(/N=N/c2c(O)ccc3ccccc23)c(C)c1  measured concentration (extracted rat blood QC samples; 0.5 µg/L, 2 h, room temperature, short-term stability): 0.486 µg/L
CC12CC(c3ccc(S(C)(=O)=O)cc3)C3=C4CCC(=O)C=C4CCC3C1CCC2(O)C(F)(F)C(F)(F)F (stereo not shown)  AUC(0-tlast), geometric mean (human, plasma; intravenous infusion, 15.7 µg [14C]-labelled, 30 min infusion, microdose 1.5 to 2 h after oral 4 mg): 2.1 ng·h/mL
CCc1cc(C)nc2c(CC(=O)N(CC)CC)c(-c3ccc(OCC[18F])cc3)nn12  parent radioligand in plasma (rat, plasma; first 2 min after injection): 89.2%
C[Si](C)(C)C[C@H](CN)CC(=O)O  performance time (neuromuscular coordination; Wistar rat male; oral, 100 mg/kg, 3 h): 180 s
CC(C)[C@H](NC(=O)CNC(=O)[C@H](CCC(N)=O)NC(=O)[C@H](C)N)C(=O)O  clearance (healthy volunteers, LPS endotoxaemia, plasma; intravenous, 45 mg/kg/h, 2 h infusion, geometric mean, added: LPS 2 ng/kg): 233 mL/min/kg
CCCCCCCC(=O)C(=O)C(O)CO (stereo not shown)  surface tension decrease (aqueous buffer; 1 to 5 mM, pH 7.4): ~17 mN/m
Nc1nc(-n2nnc3c2CCC2C(CO)C2CC3)nc2c1ncn2C1OC(CO)C(O)C1O (mixture of isomers)  second excitation maximum (methanol; red edge of spectrum): 329 nm
CC[C@H](C)[C@@H]1NC(=O)[C@H](C)NC(=O)[C@H](CCCNC(=N)N)NC(=O)[C@H](CCCNC(=N)N)NC(=O)[C@H](CC(N)=O)NC(=O)[C@H](CCCNC(=N)N)NC(=O)[C@H](C)NC(=O)[C@H](C(C)C)NC(=O)[C@H]([C@@H](C)CC)NC(=O)[C@H](C(C)C)NC(=O)[C@@H](NC(=O)[C@H](CCCCN)NC(=O)[C@@H](N)CCCNC(=N)N)CSSC[C@@H](C(=O)N[C@@H](CCCNC(=N)N)C(=O)O)NC(=O)[C@H](CC(C)C)NC(=O)[C@H]([C@@H](C)CC)NC1=O  single disulfide form (LC-MS; PBS; 0.1 mg/mL): 100%
COc1cc(NC(C)=O)c2c(c1O)-c1c(OC)c(OC)cc3c1C(C2)N(C)CC3 (stereo not shown)  remaining compound (rat kidney homogenate; 0.5 µg/mL, 4 h, room temperature, short-term storage): 98.5 ± 1.7%
N=C(N)NCCC[C@@H]1NC(=O)[C@H](Cc2c[nH]c3ccccc23)NC(=O)[C@@H](CC2CCCCC2)NC(=O)[C@@H]2CCCN2C(=O)[C@@H](NC(=O)CCc2ccccc2)CCCNC1=O  unchanged drug excreted (C57BL/6J mouse, urine; intravenous, 1 mg/kg, 24 h): ≤ 46%
Cc1[nH]nc2c1N=C(c1ccccc1Cl)c1cnc(N(CCO)CCO)cc1N2  excretion in feces and urine (human, feces and urine; oral, 10 mg; relative to: dose): 2.91%
O=C(NC1CC1)N1CC=C(c2cc3c(Nc4cc5ncsc5cc4F)ncnc3s2)CC1  intrinsic clearance (human liver microsomes; 1 µM): < 12 mL/min/g protein
CC(=O)N[C@@H](CCCCN)C(=O)N[C@@H](CCCCN)C(=O)N[C@@H](CCCCN)C(=O)N[C@@H](CO)C(=O)NCC(=O)N[C@@H](CO)C(=O)NCC(=O)N[C@@H](CCC(N)=O)C(=O)N[C@@H](CCC(N)=O)C(=O)N[C@@H](CCCCN)C(=O)N[C@@H](Cc1ccccc1)C(=O)N[C@@H](CCC(N)=O)C(=O)N[C@@H](Cc1ccccc1)C(=O)N[C@@H](CCC(N)=O)C(=O)N[C@@H](Cc1ccccc1)C(=O)N[C@@H](CCC(=O)O)C(=O)N[C@@H](CCC(N)=O)C(=O)N[C@@H](CCC(N)=O)C(N)=O  nanofiber width (negative-stain TEM; 1× PBS; 0.2 mM): 9.66 ± 0.99 nm
COc1ccc(/C=C/c2ccc(-c3ccc(C)cn3)nc2)cc1  fluorescence quantum yield (EtOH; added: quinine bisulfate reference): 0.35
C=CCc1ccc(O)c(-c2cc(CC=C)ccc2OCCCCCCCCCC[P+](c2ccccc2)(c2ccccc2)c2ccccc2)c1  serum ALT (C57BL/6 mouse, non-tumour-bearing; dose not given, day 31): 58.7 ± 25.4 IU/L
CC/C=C\C/C=C\C/C=C\C/C=C\C/C=C\CCCCOC(CC)C(=O)O (stereo not shown)  radioactivity concentration ([14C] label; male Wistar rat, whole blood; oral, 100 mg/kg, 4 h): 60.9 µg equiv/g
CC(C)C[C@H](NC(=O)[C@H](C)NC(=O)[C@H](C)NC(=O)[C@H](CCC(N)=O)NC(=O)[C@H](C)NC(=O)[C@H](CO)NC(=O)[C@H](CC(C)C)NC(=O)[C@H](C)NC(=O)[C@@H](NC(=O)[C@H](C)NC(=O)[C@H](Cc1ccc(O)cc1)NC(=O)[C@H](CO)NC(=O)[C@H](CCCCN)NC(=O)[C@H](C)NC(=O)[C@H](Cc1ccccc1)NC(=O)[C@H](CCCCN)NC(=O)[C@H](C)NC(=O)[C@H](Cc1ccccc1)NC(=O)[C@H](CCCCN)NC(=O)[C@H](CCCCN)NC(=O)[C@H](C)NC(=O)[C@H](Cc1ccccc1)NC(=O)[C@H](CCCCN)NC(=O)[C@H](C)NC(=O)[C@H](Cc1ccccc1)NC(=O)[C@H](CCCCN)NC(=O)[C@H](CCCCN)NC(=O)[C@H](C)NC(=O)[C@H](Cc1ccccc1)NC(=O)[C@H](CCCCN)NC(=O)[C@H](C)NC(=O)[C@H](Cc1ccccc1)NC(=O)[C@@H](N)CCCCN)C(C)C)C(=O)N[C@@H](C)C(=O)N[C@@H](CCCNC(=N)N)C(=O)N[C@@H](CCCNC(=N)N)C(=O)O  volume of distribution (C57BL/6 mouse, male; intravenous, 8 mg/kg): 0.287 ± 0.032 L/kg
COc1cc2ncnc(Oc3ccc4c(C(N)=O)c(C)oc4c3)c2cc1OC  decrease in exposure (item: AUC0-inf; human, severe renal impairment; oral; relative to: normal renal function): ~22%
CC1C(c2c(F)ccc(F)c2F)CC(N[14C](=O)c2cnc3c(c2)CC2(C3)C(=O)Nc3ncccc32)C(=O)N1CC(F)(F)F (stereo not shown)  tolerability (healthy male human; 50 mg, single dose): not toxic
C#CCOc1ccc(/C=C2\SC(=O)N(CC(=O)NCc3ccccc3)C2=O)cc1  Kirkwood-Buff integral G1,3 (inverse Kirkwood-Buff integrals; binary solvent mixture; 298.15 K, mole fraction x1 0.55): -261 cm³/mol
COC(=O)C1OC(Oc2c(-c3ccccc3)oc3cc(O)c(O)c(O)c3c2=O)C(O)C(O)C1O (stereo not shown)  organ weight (BALB/c mouse, spleen; 2 mg/kg): 0.78 ± 0.3 g
CN(C)c1ccc(-c2nc3ccc(OCCCCCN4CCN5CCN(CC4)CC(=O)[O][Al]([18F])[O]C(=O)C5)cc3s2)cc1  tissue uptake (ICR mouse, heart; intravenous, 60 min): 0.62 ± 0.26 %ID/g
C[Si]1(C[C@@H](CN)CC(=O)O)CCCC1  performance time (neuromuscular coordination; Wistar rat male; oral, 300 mg/kg, 3 h): 180 s
CCOC(=O)C(Cc1cccc(O)c1)OC(=O)C=Cc1ccc(O)c(O)c1C=Cc1ccc(O)c(O)c1 (stereo not shown)  liver and kidney function markers (normal mice; dose not given): no effect
[Ru+2].c1ccc(-c2cccc(-c3ccccn3)n2)nc1.c1ccc2nc(-c3ccc4ccccc4n3)ccc2c1.c1ccncc1  photosubstitution quantum yield (water; 470 nm light): 0.014
NS(=O)(=O)c1ccc(N2N=C(C(F)(F)F)CC2c2ccc(F)cc2F)cc1 (stereo not shown)  Cmax (beagle dog, plasma; oral, 4 mg/kg, single dose): 872 ng/mL
COc1cc2c(cc1OC)CN(CCCCn1ccc3cc(OCC[18F])ccc31)C2  liver uptake (male ICR mice; intravenous, 30 min post-injection): 18.1 ± 1.16 %ID/g

A few entries again:
C=C(c1ccc(C(=O)O)c(F)c1)c1cc2c(cc1C)C(C)(C)C=CC2(C)C  LDL level (Sprague-Dawley rat, male, plasma; oral, 100 mg/kg, 12 h, sesame oil vehicle): 4 ± 1 mg/dL
Cc1ccc(OCC(=O)O)cc1  Cmax (male Sprague-Dawley rat, plasma; oral, 30 mg/kg of parent drug, day 1, 90-day study, metabolite): 4400 ± 921 ng/mL
